{"data": "Published values collected from several papers", "note": "Compare with care: the assays were run in different laboratories. Values joined by “and” are separate records of one study, mostly repeats; a detail may differ. ± gives the spread as reported."}
{"Structure (SMILES)": "CCNC(=O)C1OC(n2cnc3c(NCC(C)C)nc(NCCNC(=O)Nc4cc[n+](C)cc4)nc32)C(O)C1O (stereo not drawn)", "test": "IAM chromatography", "setting": "pH 7.4", "endpoint": "log kIAM", "result": 2.21}
{"Structure (SMILES)": "COCCOCCOCCOc1ccc(/C=C/C2=[N+]3C(=C(c4cc(OC)cc(OC)c4)c4c(C)c(I)c(/C=C/c5ccc(OCCOCCOCCOC)cc5)n4[B-]3(F)F)C(C)=C2I)cc1", "system": "DMSO", "endpoint": "log molar absorptivity", "result": "4.79 M⁻¹ cm⁻¹"}
{"Structure (SMILES)": "O=C(O)CN(CCNC(=O)c1cccc(C(=O)NCCN(CC(=O)O)CC(=O)O)n1)CC(=O)O", "test": "potentiometric titration", "system": "water, 0.1 M KNO3", "setting": "25.0 °C, species HL", "endpoint": "log K (stepwise protonation)", "result": 10.3}
{"Structure (SMILES)": "Oc1ccc2nc1CNCCNCCNC2", "test": "pH-potentiometric titration", "setting": "protonation constant, I 0.15 M NaCl, 298 K", "endpoint": "log K2", "result": 9.46}
{"Structure (SMILES)": "CCNC(=O)C1OC(n2cnc3c(N)nc(NCCNC(=O)Nc4cc[n+](C)cc4)nc32)C(O)C1O (stereo not drawn)", "test": "IAM chromatography", "setting": "pH 7.4", "endpoint": "log kIAM", "result": 0.66}
{"Structure (SMILES)": "c1ccc(COc2cc3nc(c2)CNCCNCCNC3)cc1", "test": "pH-potentiometric titration", "setting": "protonation constant, I 0.15 M NaCl, 298 K", "endpoint": "log K1", "result": 10.5}
{"Structure (SMILES)": "CCCCCCCC(=O)C(=O)C(O)CO (stereo not drawn)", "endpoint": "log membrane partition coefficient", "result": 3.55}
{"Structure (SMILES)": "COc1cc(OC)cc(C2=C3C(C)=C(I)C(/C=C/c4c[nH]c5ccc([N+](=O)[O-])cc45)=[N+]3[B-](F)(F)n3c(/C=C/c4c[nH]c5ccc([N+](=O)[O-])cc45)c(I)c(C)c32)c1", "system": "DMSO", "endpoint": "log molar absorptivity", "result": "4.87 M⁻¹ cm⁻¹"}
{"Structure (SMILES)": "COc1cc2oc(-c3ccc(C(F)(F)F)cc3F)cc(=O)c2c(O)c1O", "test": "spectrophotometric titration", "system": "methanol-water", "setting": "pH 7.4, 25.0 °C, added: Fe(III)-NTA", "endpoint": "log stability constant", "result": 5.7}
{"Structure (SMILES)": "CCOC(=O)c1[nH]c(C)c(/C=C/c2c(I)c(C)c3n2[B-](F)(F)[N+]2=C(C)C(I)=C(C)C2=C3c2cc(OC)cc(OC)c2)c1C", "system": "DMSO", "endpoint": "log molar absorptivity", "result": "4.82 M⁻¹ cm⁻¹"}
{"Structure (SMILES)": "CCCCCCC(=O)C(=O)C(O)CO (stereo not drawn)", "endpoint": "log membrane partition coefficient", "result": 2.23}
{"Structure (SMILES)": "CCNC(=O)C1OC(n2cnc3c(NCC(c4ccccc4)c4ccccc4)nc(NCCNC(=O)Nc4cc[n+](C)cc4)nc32)C(O)C1O (stereo not drawn)", "test": "IAM chromatography", "setting": "pH 7.4", "endpoint": "log kIAM", "result": 2.87}
{"Structure (SMILES)": "COCCOCCOCCOc1ccc(/C=C/c2c(I)c(C)c3n2[B-](F)(F)[N+]2=C(C)C(I)=C(C)C2=C3c2cc(OC)cc(OC)c2)cc1", "system": "dichloromethane", "endpoint": "log molar absorptivity", "result": "4.77 M⁻¹ cm⁻¹"}
{"Structure (SMILES)": "[Cl][Pd-2]([Cl])([N+](=Cc1ccc[nH]1)Cc1ccco1)[N+](=Cc1ccc[nH]1)Cc1ccco1", "test": "shake-flask", "system": "n-octanol/water", "endpoint": "log P", "result": "1.382 ± 0.0032"}
{"Structure (SMILES)": "COc1cc(OC)cc(C2=C3C(C)=C(I)C(C)=[N+]3[B-](F)(F)n3c(/C=C/c4c[nH]c5ccccc45)c(I)c(C)c32)c1", "system": "dichloromethane", "endpoint": "log molar absorptivity", "result": "4.64 M⁻¹ cm⁻¹"}
{"Structure (SMILES)": "COc1ccc(NC(=O)[C@H](CCCCN)NC(=O)c2cc(NC(=O)[C@H](CCCCN)NC(=O)c3cc(NC(=O)[C@H](CCCCN)NC(=O)c4cc(N)ccc4OC)ccc3OC)ccc2OC)cc1C(N)=O", "test": "UV-vis λmax shift", "system": "TBS", "setting": "pH 7.4, monomer-hexamer, K in M^-5", "endpoint": "log association constant", "result": 21.1}
{"Structure (SMILES)": "CCNC(=O)C1OC(n2cnc3c(NCC(C)C)nc(NCCNC(=O)Nc4ccncc4)nc32)C(O)C1O (stereo not drawn)", "test": "IAM chromatography", "setting": "pH 7.4", "endpoint": "log kIAM", "result": 1.86}
{"Structure (SMILES)": "O=C1c2ccccc2NC(c2ccc(O)c(O)c2)N1/N=C/c1ccc(O)c(O)c1 (stereo not drawn)", "test": "RP-HPLC", "endpoint": "log k", "result": -0.66}
{"Structure (SMILES)": "O=c1c(O)cccn1CCCN1CCN(CCCn2cccc(O)c2=O)CC1", "test": "spectrophotometric titration", "setting": "25 °C, ligand protonation, ionic strength 0.10 M", "endpoint": "log Ka2", "result": "-5.91 ± 0.09"}
{"Structure (SMILES)": "COc1cc(OC)cc(C2=C3C(C)=C(I)C(C)=[N+]3[B-](F)(F)n3c(/C=C/c4c[nH]c5ccc([N+](=O)[O-])cc45)c(I)c(C)c32)c1", "system": "DMSO", "endpoint": "log molar absorptivity", "result": "4.46 M⁻¹ cm⁻¹"}
{"Structure (SMILES)": "COC(=O)CCC(=O)[O][Pt-2]1([Cl])([Cl])([O]C)[NH2+]CC[N+]1(C)C", "test": "RP-HPLC, C18 column", "system": "methanol/aqueous formic acid", "setting": "25 °C, extrapolated to 100% water", "endpoint": "log kw", "result": "1.58 ± 0.02"}
{"Structure (SMILES)": "COC(=O)c1ccccc1-c1c2ccc(=O)cc-2oc2cc(OCCCCC[P+](c3cc(C)cc(C)c3)(c3cc(C)cc(C)c3)c3cc(C)cc(C)c3)ccc12", "test": "shake-flask, HPLC", "system": "1-octanol/water", "endpoint": "log P", "result": "2.37 ± 0.01"}
{"Structure (SMILES)": "C[O][Pt-2]1([Cl])([Cl])([O]C(=O)CCC(=O)OCCOC(=O)CCC(=O)[O][Pt-2]2([Cl])([Cl])([O]C)[NH2+]CC[N+]2(C)C)[NH2+]CC[N+]1(C)C", "test": "RP-HPLC, C18 column", "system": "methanol/aqueous formic acid", "setting": "25 °C, extrapolated to 100% water", "endpoint": "log kw", "result": "2.95 ± 0.01"}
{"Structure (SMILES)": "COc1cc(/C=N/N2C(=O)c3ccccc3NC2c2ccc(O)c(OC)c2)ccc1O (stereo not drawn)", "test": "RP-HPLC", "endpoint": "log k", "result": -0.55}
{"Structure (SMILES)": "CCOC(=O)c1[nH]c(C)c(/C=C/C2=[N+]3C(=C(c4cc(OC)cc(OC)c4)c4c(C)c(I)c(/C=C/c5c(C)[nH]c(C(=O)OCC)c5C)n4[B-]3(F)F)C(C)=C2I)c1C", "system": "THF", "endpoint": "log molar absorptivity", "result": "4.8 M⁻¹ cm⁻¹"}
{"Structure (SMILES)": "COc1cc(-c2nc3ccccc3s2)cc(CN2CCN(CC(=O)O)CCN(CC(=O)O)CC2)c1O", "system": "octanol/water", "setting": "64Cu complex", "endpoint": "log D", "result": "-0.68 ± 0.1"}
{"Structure (SMILES)": "C[N+]1(C)CC[NH2+][Pt-2]1([OH])([Cl])([Cl])[O]C(=O)CCC(=O)OCCO", "test": "RP-HPLC, C18 column", "system": "methanol/aqueous formic acid", "setting": "25 °C, extrapolated to 100% water", "endpoint": "log kw", "result": "0.3 ± 0.06"}
{"Structure (SMILES)": "CC[C@@H]1CN(CC(=O)[O-])[C@H](CC)CN[C@H](CC)CN(CC(=O)[O-])[C@H](CC)CN1.[Mn+2]", "system": "0.1 M KCl", "setting": "25 °C", "endpoint": "log K(MnL)", "result": 17.1}
{"Structure (SMILES)": "Cc1cc(-c2ccccc2)c2ccc3c(-c4ccccc4)cc(C)nc3c2n1.[Cl-].[Cl-].[Ru+2].c1ccc(-c2ccccn2)nc1.c1ccc(-c2ccccn2)nc1", "system": "octanol/water", "setting": "room temperature, chloride salt", "endpoint": "log P", "result": "-1.57 ± 0.01"}
{"Structure (SMILES)": "NCC(=O)N1CCC[C@H]1C(=O)N1C[C@H](O)C[C@H]1C(=O)O", "test": "potentiometric titration", "setting": "25 °C, MAH-2 complex, added: Fe(III)", "endpoint": "log beta", "result": 7.99}
{"Structure (SMILES)": "COc1cc2oc(-c3ccc(C(F)(F)F)cc3)cc(=O)c2c(O)c1O", "test": "spectrophotometric titration", "system": "methanol/water 80/20 w/w", "setting": "25.0 °C, ionic strength 0.1 M, 6-OH group", "endpoint": "log protonation constant", "result": 10.1}
{"Structure (SMILES)": "NC(=O)CN1CCNC(=O)c2cccc(n2)C(=O)NCCN(CC(N)=O)CCN(CC(N)=O)CC1", "test": "potentiometric titration", "system": "water, 0.1 M KNO3", "setting": "25.0 °C, complex species LPb(OH), added: Pb(NO3)2", "endpoint": "log β (Pb2+ complex stability)", "result": 15.4}
{"Structure (SMILES)": "FC(F)(F)c1ccnc(-c2cc(C(F)(F)F)ccn2)c1.FC(F)(F)c1ccnc(-c2cc(C(F)(F)F)ccn2)c1.[Cl-].[Cl-].[Ru+2].c1cnc2c(c1)ccc1cccnc12", "test": "shake-flask", "system": "1-octanol/phosphate buffer", "setting": "pH 7.4, chloride salt", "endpoint": "log D octanol/water", "result": "negative"}
{"Structure (SMILES)": "O=C(/C=C/c1ccc(O)c(O)c1)NCCCCCCCC[P+](c1ccccc1)(c1ccccc1)c1ccccc1", "test": "derivative spectrophotometry", "system": "brain polar lipid membranes", "setting": "37 °C", "endpoint": "log Kd", "result": "3.64 ± 0.25"}
{"Structure (SMILES)": "O=C(O)[C@@H]1C[C@@H](O)CN1C(=O)[C@@H]1CCCN1", "test": "potentiometric titration", "setting": "40 °C, MA2 complex, added: Fe(III)", "endpoint": "log beta", "result": 23.7}
{"Structure (SMILES)": "Oc1cccc(-c2cccc(O)n2)n1.[Cl-].[Cl-].[Ru+2].c1cnc2c(c1)c1c(c3cccnc32)OCCO1.c1cnc2c(c1)c1c(c3cccnc32)OCCO1", "system": "octanol/buffer", "setting": "basic form vs acidic form", "how to read": "baseline: acidic form", "endpoint": "log D increase", "result": "1.1 log units and ~1.1 log units"}
{"Structure (SMILES)": "COc1cc2oc(-c3ccc(F)cc3)cc(=O)c2c(O)c1O", "test": "spectrophotometric titration", "system": "methanol-water", "setting": "pH 7.4, 25.0 °C, added: Fe(III)-NTA", "endpoint": "log stability constant", "result": 5}
{"Structure (SMILES)": "COc1ccc(NC(=O)[C@H](CCCCN)NC(=O)c2cc(NC(=O)[C@H](CCCCN)NC(=O)c3cc(NC(=O)[C@H](CCCCN)NC(=O)c4cc(NC(=O)[C@@H](N)CCCCN)ccc4OC)ccc3OC)ccc2OC)cc1C(N)=O", "test": "UV-vis λmax shift", "system": "Tris 50 mM", "setting": "pH 7.4, monomer-hexamer global fit, added: NaCl 0 M", "endpoint": "log association constant", "result": "< 15"}
{"Structure (SMILES)": "Br.Br.Br.O=c1c(O)cccn1CCN1CCN(CCn2cccc(O)c2=O)CCN(CCn2cccc(O)c2=O)CC1", "test": "spectrophotometric titration", "setting": "25 °C, Ka3, ionic strength 0.10 M", "endpoint": "log proton dissociation constant", "result": "-7.5 ± 0.02"}
{"Structure (SMILES)": "Oc1cc2nc(c1)CNCc1cc(O)cc(n1)CNC2", "test": "potentiometric titration", "system": "0.15 M NaCl", "setting": "298 K, protonation constant", "endpoint": "log K3", "result": 5.25}
{"Structure (SMILES)": "COc1cc(OC)cc(C2=C3C(C)=C(I)C(C)=[N+]3[B-](F)(F)n3c(/C=C/c4cccs4)c(I)c(C)c32)c1", "system": "DMSO", "endpoint": "log molar absorptivity", "result": "4.61 M⁻¹ cm⁻¹"}
{"Structure (SMILES)": "Br.Br.O=c1c(O)cccn1CCN1CCN(CCn2cccc(O)c2=O)CC1", "test": "spectrophotometric titration", "setting": "25 °C, Ka3, ionic strength 0.10 M", "endpoint": "log proton dissociation constant", "result": "-7.5 ± 0.08"}
{"note": "Repeated from above:"}
{"Structure (SMILES)": "[Cl][Pd-2]([Cl])([N+](=Cc1ccc[nH]1)Cc1ccco1)[N+](=Cc1ccc[nH]1)Cc1ccco1", "test": "shake-flask", "system": "n-octanol/water", "endpoint": "log P", "result": "1.382 ± 0.0032"}
{"Structure (SMILES)": "COc1cc(OC)cc(C2=C3C(C)=C(I)C(C)=[N+]3[B-](F)(F)n3c(/C=C/c4c[nH]c5ccccc45)c(I)c(C)c32)c1", "system": "dichloromethane", "endpoint": "log molar absorptivity", "result": "4.64 M⁻¹ cm⁻¹"}
{"Structure (SMILES)": "COc1ccc(NC(=O)[C@H](CCCCN)NC(=O)c2cc(NC(=O)[C@H](CCCCN)NC(=O)c3cc(NC(=O)[C@H](CCCCN)NC(=O)c4cc(N)ccc4OC)ccc3OC)ccc2OC)cc1C(N)=O", "test": "UV-vis λmax shift", "system": "TBS", "setting": "pH 7.4, monomer-hexamer, K in M^-5", "endpoint": "log association constant", "result": 21.1}
{"Structure (SMILES)": "CCNC(=O)C1OC(n2cnc3c(NCC(C)C)nc(NCCNC(=O)Nc4ccncc4)nc32)C(O)C1O (stereo not drawn)", "test": "IAM chromatography", "setting": "pH 7.4", "endpoint": "log kIAM", "result": 1.86}
